Assay results collected from several papers.
Protocols differ between the studies behind these lines. pEC50, pIC50: −log10 of the molar value.
UniProt Q9UM73, sequence (whole entry, looked up): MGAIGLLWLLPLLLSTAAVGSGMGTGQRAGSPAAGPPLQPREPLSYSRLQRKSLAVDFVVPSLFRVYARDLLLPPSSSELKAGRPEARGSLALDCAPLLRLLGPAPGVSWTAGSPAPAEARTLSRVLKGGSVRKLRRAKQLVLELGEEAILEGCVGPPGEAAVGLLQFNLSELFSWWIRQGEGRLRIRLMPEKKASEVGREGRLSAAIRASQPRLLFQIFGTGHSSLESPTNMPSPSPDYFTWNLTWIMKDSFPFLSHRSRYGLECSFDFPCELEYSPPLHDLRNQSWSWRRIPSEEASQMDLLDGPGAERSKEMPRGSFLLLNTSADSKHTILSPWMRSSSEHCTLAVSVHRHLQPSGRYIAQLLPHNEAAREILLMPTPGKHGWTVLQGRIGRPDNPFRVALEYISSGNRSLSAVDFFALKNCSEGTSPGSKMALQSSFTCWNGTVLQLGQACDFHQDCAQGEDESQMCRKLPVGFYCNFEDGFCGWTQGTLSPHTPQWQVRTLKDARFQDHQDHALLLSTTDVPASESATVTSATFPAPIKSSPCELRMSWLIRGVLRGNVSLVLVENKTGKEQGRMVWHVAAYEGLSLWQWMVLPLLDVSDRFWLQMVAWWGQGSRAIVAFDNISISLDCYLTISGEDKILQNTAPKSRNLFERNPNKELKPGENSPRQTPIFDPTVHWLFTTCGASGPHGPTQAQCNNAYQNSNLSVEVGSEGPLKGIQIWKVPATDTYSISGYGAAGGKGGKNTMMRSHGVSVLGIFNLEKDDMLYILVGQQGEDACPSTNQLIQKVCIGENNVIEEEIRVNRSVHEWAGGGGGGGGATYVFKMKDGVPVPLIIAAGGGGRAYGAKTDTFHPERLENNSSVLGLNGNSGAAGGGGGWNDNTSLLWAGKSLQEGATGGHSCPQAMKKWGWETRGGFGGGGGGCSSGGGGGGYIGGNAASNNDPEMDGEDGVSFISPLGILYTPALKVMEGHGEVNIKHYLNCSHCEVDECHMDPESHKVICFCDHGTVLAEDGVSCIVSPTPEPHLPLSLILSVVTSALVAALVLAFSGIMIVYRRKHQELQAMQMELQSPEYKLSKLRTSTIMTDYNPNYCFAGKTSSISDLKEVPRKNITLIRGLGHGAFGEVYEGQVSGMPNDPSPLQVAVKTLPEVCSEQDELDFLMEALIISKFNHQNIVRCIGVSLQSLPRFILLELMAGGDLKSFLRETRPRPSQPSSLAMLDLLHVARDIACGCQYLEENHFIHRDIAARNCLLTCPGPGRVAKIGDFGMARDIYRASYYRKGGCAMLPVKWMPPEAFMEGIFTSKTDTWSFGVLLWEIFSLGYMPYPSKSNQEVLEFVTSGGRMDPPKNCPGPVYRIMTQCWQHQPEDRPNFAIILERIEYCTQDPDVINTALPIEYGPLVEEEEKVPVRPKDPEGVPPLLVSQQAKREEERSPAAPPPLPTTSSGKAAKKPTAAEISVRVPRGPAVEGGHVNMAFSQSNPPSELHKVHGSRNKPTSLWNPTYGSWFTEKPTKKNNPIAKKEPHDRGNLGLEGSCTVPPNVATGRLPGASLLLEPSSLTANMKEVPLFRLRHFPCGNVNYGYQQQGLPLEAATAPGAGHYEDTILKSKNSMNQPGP
UniProt Q9Y5S2, sequence (whole entry, looked up): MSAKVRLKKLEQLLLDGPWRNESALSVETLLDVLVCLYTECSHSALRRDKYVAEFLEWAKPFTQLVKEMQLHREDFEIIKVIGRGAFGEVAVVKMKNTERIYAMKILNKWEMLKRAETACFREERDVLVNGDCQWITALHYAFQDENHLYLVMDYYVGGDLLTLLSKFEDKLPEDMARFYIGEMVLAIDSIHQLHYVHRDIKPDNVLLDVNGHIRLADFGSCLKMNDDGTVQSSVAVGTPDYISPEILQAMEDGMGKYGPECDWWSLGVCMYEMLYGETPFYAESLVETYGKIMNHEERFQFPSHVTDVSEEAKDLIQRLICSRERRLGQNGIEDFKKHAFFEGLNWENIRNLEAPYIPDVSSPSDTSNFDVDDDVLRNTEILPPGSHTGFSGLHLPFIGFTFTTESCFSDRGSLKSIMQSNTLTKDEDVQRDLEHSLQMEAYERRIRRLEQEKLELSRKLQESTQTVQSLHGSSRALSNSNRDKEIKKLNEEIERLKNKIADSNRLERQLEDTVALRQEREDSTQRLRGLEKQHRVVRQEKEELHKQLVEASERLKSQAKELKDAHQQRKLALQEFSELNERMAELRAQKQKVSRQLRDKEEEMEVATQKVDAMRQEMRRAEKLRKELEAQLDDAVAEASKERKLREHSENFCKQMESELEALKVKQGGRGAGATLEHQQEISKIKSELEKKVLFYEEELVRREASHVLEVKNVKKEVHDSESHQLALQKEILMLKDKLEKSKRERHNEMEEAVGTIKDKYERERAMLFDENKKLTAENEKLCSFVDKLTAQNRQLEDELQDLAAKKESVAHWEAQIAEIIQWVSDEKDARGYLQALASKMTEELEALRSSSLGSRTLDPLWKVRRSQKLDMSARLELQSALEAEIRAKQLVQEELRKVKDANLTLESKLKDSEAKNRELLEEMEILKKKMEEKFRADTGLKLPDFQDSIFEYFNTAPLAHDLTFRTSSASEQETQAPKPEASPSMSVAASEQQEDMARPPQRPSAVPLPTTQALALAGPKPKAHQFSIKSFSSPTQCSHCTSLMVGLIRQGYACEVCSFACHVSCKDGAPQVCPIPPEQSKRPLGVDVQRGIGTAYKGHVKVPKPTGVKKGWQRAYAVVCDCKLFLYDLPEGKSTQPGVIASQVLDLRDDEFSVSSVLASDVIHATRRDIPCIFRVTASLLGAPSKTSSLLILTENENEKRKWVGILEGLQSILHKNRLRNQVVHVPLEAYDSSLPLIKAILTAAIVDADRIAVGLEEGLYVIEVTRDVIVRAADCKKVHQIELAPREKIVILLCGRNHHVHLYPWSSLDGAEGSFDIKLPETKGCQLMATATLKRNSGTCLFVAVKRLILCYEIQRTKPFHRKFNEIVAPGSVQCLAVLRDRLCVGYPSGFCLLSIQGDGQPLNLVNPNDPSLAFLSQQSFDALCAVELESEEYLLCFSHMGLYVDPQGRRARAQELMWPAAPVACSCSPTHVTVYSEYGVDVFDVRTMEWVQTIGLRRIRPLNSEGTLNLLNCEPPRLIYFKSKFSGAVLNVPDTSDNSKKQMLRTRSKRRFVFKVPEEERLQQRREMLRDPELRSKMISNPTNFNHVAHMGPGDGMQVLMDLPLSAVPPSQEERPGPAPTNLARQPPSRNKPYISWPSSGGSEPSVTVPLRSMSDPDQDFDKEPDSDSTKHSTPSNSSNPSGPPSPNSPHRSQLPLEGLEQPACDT
UniProt Q9Y4K4, sequence (whole entry, looked up): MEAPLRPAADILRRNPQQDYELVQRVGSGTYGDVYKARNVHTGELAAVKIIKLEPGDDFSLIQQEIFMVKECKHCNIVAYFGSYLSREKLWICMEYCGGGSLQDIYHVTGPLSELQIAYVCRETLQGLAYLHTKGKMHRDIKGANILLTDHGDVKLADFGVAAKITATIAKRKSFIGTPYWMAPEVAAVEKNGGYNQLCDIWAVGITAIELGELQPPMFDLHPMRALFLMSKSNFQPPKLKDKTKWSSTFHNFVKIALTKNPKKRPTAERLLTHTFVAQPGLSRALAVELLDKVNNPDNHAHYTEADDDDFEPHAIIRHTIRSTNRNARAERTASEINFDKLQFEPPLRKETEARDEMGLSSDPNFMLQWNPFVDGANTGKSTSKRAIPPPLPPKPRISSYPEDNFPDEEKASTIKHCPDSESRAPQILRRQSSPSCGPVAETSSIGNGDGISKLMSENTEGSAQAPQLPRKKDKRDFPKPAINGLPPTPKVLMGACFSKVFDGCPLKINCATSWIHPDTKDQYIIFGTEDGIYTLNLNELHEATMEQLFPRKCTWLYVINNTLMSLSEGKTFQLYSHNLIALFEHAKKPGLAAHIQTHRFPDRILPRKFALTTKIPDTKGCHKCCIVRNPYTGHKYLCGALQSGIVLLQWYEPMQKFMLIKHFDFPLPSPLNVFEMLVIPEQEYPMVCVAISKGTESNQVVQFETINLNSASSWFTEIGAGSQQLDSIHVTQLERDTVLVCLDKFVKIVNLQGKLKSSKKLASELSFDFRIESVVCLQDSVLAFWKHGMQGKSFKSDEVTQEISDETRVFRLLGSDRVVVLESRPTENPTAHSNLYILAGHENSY

CN(C)C1CCN(C(=O)/C=C/c2nn(CC3CCCC3)c3ncnc(N)c23)CC1  pEC50 (FLO-1; cell growth or viability, resazurin; 5 days): < 4.52
CCc1c(C)c2ccc(OCC=Cc3ccccc3)c(C)c2oc1=O  viability (PC-3; cell growth or viability, MTT; 62.5 µg/mL): 52%
CC[C@]1(O)C[C@@H]2CN(CCc3c([nH]c4ccccc34)[C@@](C(=O)OC)(c3cc4c(cc3OC)N(C)[C@H]3[C@@](O)(C(=O)OC)[C@H](OC(C)=O)[C@]5(CC)C=CCN6CC[C@]43[C@@H]65)C2)C1  pIC50 (MB002; cell growth or viability; 7 days): 7.60
COc1cc(-c2cncc3c2CN(C)Cc2cc(N4CCNCC4)ccc2-3)cc(OC)c1OC  remaining activity (MAP4K5 (Homo sapiens, UniProt Q9Y4K4); enzyme activity, inhibitor; 1 µM): 94%
Cc1[nH]c2cc(F)ccc2c(=O)c1Cc1ccc(Cl)cc1.Cc1[nH]c2cccc(F)c2c(=O)c1Cc1ccc(Cl)cc1  pIC50 (HEK293; cell growth or viability): < 5.00
O=C(Nc1ccc(Oc2nnc(-c3ccc(Cl)cc3)c3ccccc23)cc1)c1cccc([N+](=O)[O-])c1  cell death (MCF7; cell growth or viability, MTT; 2.5 µM): 95.1%
Cc1cc([C@@H](C)Nc2ccccc2C(=O)O)c2nc(N3CCC(F)(F)CC3)c(C#N)c(=O)n2c1  remaining binding (MAP3K4 (Homo sapiens, UniProt Q9Y6R4); binding, competition with immobilised ligand; 10 µM): 100%
C[C@@H]1CC[C@@H]([C@](C)(O)CNCc2cccc3ccccc23)[C@H](OCc2ccccc2)C1  inhibition (A2780; cell growth or viability, MTT; 10 µM, 72 h): 28.3%
Nc1ccn([C@@H]2O[C@H](CO)[C@@H](O)C2(F)F)c(=O)n1  pIC50 (MB002; cell growth or viability; 7 days): 7.58
Cc1ccc(C(CS(=O)(=O)c2ccccc2)=NNc2nc(C)c(N=Nc3cccc(C)c3)s2)cc1  viability (WM 266-4; cell growth or viability, MTT; 25 µM, 48 h): 40.3%
Cc1c(Cc2ccccc2)c(=O)oc2c(C)c(OCC(=O)NN=Cc3ccco3)ccc12  viability (PC-3; cell growth or viability, MTT; 62.5 µg/mL): 20.1%
OCc1ccc(-c2nn(Cc3ccc(Cl)cc3)c3ccccc23)o1  inhibition (RBE; cell growth or viability, ATP luminescence; 46 µM, 72 h): 70%
CC(=O)Nc1ccc(Oc2nnc(-c3ccc(Cl)cc3)c3ccccc23)cc1  viability (MCF7; cell growth or viability, MTT; 0.312 µM, 24 h): 15.6%
C[C@H]1Oc2cc(cnc2N)-c2c(nn(C)c2C#N)CN(C)C(=O)c2ccc(F)cc21  pIC50 (MB002; cell growth or viability; 7 days): < 5.00
COc1ccc(CNC[C@](O)(COCc2ccc(F)cc2)[C@@H]2CC[C@@H](C)C[C@H]2OCc2ccc(F)cc2)cc1  inhibition (HeLa; cell growth or viability, MTT; 10 µM, 72 h): 93.4%
C=CC(=O)N1CCC(COCC(=O)N2CCN(c3nc(-c4cnc(N)nc4C(F)F)nc(N4CCOC[C@@H]4C)n3)CC2)CC1  remaining binding (CDC42BPB (Homo sapiens, UniProt Q9Y5S2); binding, competition with immobilised ligand; 1 µM): 100%
CC(=NNC(=S)Nc1ccccc1)c1ccc(Nc2nnc(-c3ccc(Cl)cc3)c3ccccc23)cc1  viability (MCF7; cell growth or viability, MTT; 0.625 µM, 24 h): 57%
NCc1ccc(-c2nn(Cc3ccccc3)c3ccccc23)o1  inhibition (RBE; cell growth or viability, ATP luminescence; 46 µM, 72 h): 70%
CNc1ncc2c(/C=C/C(=O)N3CCC(CCO)CC3)nn(CC3CCCC3)c2n1  pEC50 (FLO-1; cell growth or viability, resazurin; 5 days): 4.62
CC(=NNC(=O)COc1ccc2c(C)c(Cc3ccccc3)c(=O)oc2c1C)c1ccc(Br)cc1  viability (PC-3; cell growth or viability, MTT; 62.5 µg/mL): 12.5%
CNc1ncc2c(/C=C/C(=O)N3CCC(OC)CC3)nn(Cc3ccccc3C)c2n1  pEC50 (FLO-1; cell growth or viability, resazurin; 5 days): 5.22
O=C(Nc1ccccc1)Nc1ccc(Oc2nnc(-c3ccc(Cl)cc3)c3ccccc23)cc1  cell death (MCF7; cell growth or viability, MTT; 10 µM): 94.6%
CCN(Cc1cc(F)cc(F)c1)c1ccc(CO)c(Cl)c1  inhibition (RBE; cell growth or viability, ATP luminescence; 46 µM, 72 h): 81%
CCC(=CCc1c(O)cc2c(c1O)C(=O)C[C@@H](c1ccc(O)cc1)O2)CC  inhibition (HeLa; cell growth or viability, MTT; 6.25 µM, 48 h): 0.424%
CNc1ncc2c(/C=C/C(=O)N3CCC(OC)CC3)nn(CC(C)(C)C)c2n1  pEC50 (FLO-1; cell growth or viability, resazurin; 5 days): < 4.52
Cc1[nH]c(C)c(-c2ccc(-c3ccc(OC(F)(F)F)cc3)cc2)c(=O)c1Br  pIC50 (HEK293; cell growth or viability): < 5.00
CC(=NNC(N)=S)c1ccc(Nc2nnc(-c3ccc(Cl)cc3)c3ccccc23)cc1  cell death (MCF7; cell growth or viability, MTT; 10 µM): 90.3%
Cc1ccc(C(CS(=O)(=O)c2ccccc2)=NNc2nc(-c3ccc(OCCCCOc4ccc(-c5csc(NN=C(CS(=O)(=O)c6ccccc6)c6ccc(C)cc6)n5)cc4)cc3)cs2)cc1  viability (WM 266-4; cell growth or viability, MTT; 100 µM, 48 h): 37.9%
C[C@]1(c2nc3c(C(N)=O)cccc3[nH]2)CCCN1  pIC50 (MB002; cell growth or viability; 7 days): < 5.00
N#Cc1ccc(N[C@@H](CC2CCCCC2)C(=O)N[C@@H]2CCCc3ccccc32)c2ccccc12  pIC50 (HEK293; cell growth or viability): < 5.00
CNc1ncc2c(/C=C/C(=O)N3CCC(OC)CC3)nn(C(C)C)c2n1  pEC50 (FLO-1; cell growth or viability, resazurin; 5 days): 4.63
C[C@@H]1CC[C@@H]([C@](O)(CNCc2ccc(F)cc2)COCc2ccc(F)cc2)[C@H](OCc2ccc(F)cc2)C1  inhibition (HeLa; cell growth or viability, MTT; 30 µM, 72 h): 96.8%
CCc1c(C)c2ccc(OCC(=O)NN=Cc3ccc([N+](=O)[O-])cc3)cc2oc1=O  viability (PC-3; cell growth or viability, MTT; 1000 µg/mL): 3.03%
O=C(C=Cc1ccccc1)Nc1ccc(Oc2nnc(-c3ccc(Cl)cc3)c3ccccc23)cc1  cell death (MCF7; cell growth or viability, MTT; 1.25 µM): 60.1%
Cc1c(Cc2ccccc2)c(=O)oc2c(C)c(OCC(=O)NN=Cc3ccccc3)ccc12  viability (PC-3; cell growth or viability, MTT; 500 µg/mL): 11%
C[C@@H]1CC[C@@H]([C@](C)(O)Cn2cnc3ccccc32)[C@H](OCc2ccccc2)C1  inhibition (A2780; cell growth or viability, MTT; 10 µM, 72 h): 35.2%
Cc1ccc(Cn2nc(-c3ccc(CO)o3)c3ccccc32)cc1  inhibition (RBE; cell growth or viability, ATP luminescence; 46 µM, 72 h): 59%
Cc1[nH]c(C)c(-c2ccc(Oc3ccc(Cl)cc3)cc2)c(=O)c1Br  pIC50 (HEK293; cell growth or viability): < 5.00
C=CCOc1ccc2c(C)c(CC)c(=O)oc2c1C  viability (PC-3; cell growth or viability, MTT; 250 µg/mL): 36.7%
C[C@@H]1CC[C@@H]([C@](C)(O)CNCc2ccc(F)cc2)[C@H](OCc2ccccc2)C1  inhibition (A2780; cell growth or viability, MTT; 30 µM, 72 h): 29.8%
CC(=NNC(=O)c1ccc(N)cc1)c1ccc(Nc2nnc(-c3ccc(Cl)cc3)c3ccccc23)cc1  cell death (MCF7; cell growth or viability, MTT; 0.312 µM): 13%
Nc1ncnc2c1c(/C=C/C(=O)N1CCCCC1)nn2CC1CCCC1  pEC50 (FLO-1; cell growth or viability, resazurin; 5 days): < 4.52
CCNc1nc(Nc2cc(F)c(C(=O)N3CCOCC3)cc2OC)ncc1C(F)(F)F  pIC50 (HD-MB03; cell growth or viability; 7 days): < 5.00
C[C@@H]1CC[C@@H]([C@@](O)(CNCc2cccc3ccccc23)COCc2ccccc2)[C@H](OCc2ccccc2)C1  inhibition (A2780; cell growth or viability, MTT; 10 µM, 72 h): 97.1%
CCN(Cc1ccccn1)c1ccc(CO)c(Cl)c1  inhibition (RBE; cell growth or viability, ATP luminescence; 46 µM, 72 h): 52%
CN(C)CCNC(=O)c1ccc(-c2nc3ccc4[nH]ncc4c3c3c2CCCCC3)cc1  GI50 (Kasumi 1; cell growth or viability; 72 h): 0.258 µM
Nc1ncnc2c1c(/C=C/C(=O)N1CCC(c3ccccc3)CC1)nn2CC1CCCC1  pEC50 (FLO-1; cell growth or viability, resazurin; 5 days): < 4.52
C=CCNC(=S)NNC(=O)COc1ccc2c(C)c(CC)c(=O)oc2c1C  viability (PC-3; cell growth or viability, MTT; 500 µg/mL): 2.84%
CC(=NNC(=O)c1ccccc1Br)c1ccc(Nc2nnc(-c3ccc(Cl)cc3)c3ccccc23)cc1  viability (MCF7; cell growth or viability, MTT; 5 µM, 24 h): 6.2%
Cc1[nH]c(C)c([N+](=O)[O-])c(=O)c1-c1ccc(Oc2ccc(OC(F)(F)F)cc2)cc1  pIC50 (HEK293; cell growth or viability): < 5.00
CCCN(O)N=Nc1ccc(S(=O)(=O)Nc2onc(C)c2C)cc1  inhibition (ABTS scavenging; 300 µg/mL): 56.5%
CCCCC(=O)Nc1ccc(-c2ccc3ncn(CCC)c(=O)c3c2)cn1  remaining binding (ALK (Homo sapiens, UniProt Q9UM73); binding, competition with immobilised ligand; 0.5 µM): 100%
Cc1ccc(S(=O)(=O)N2CCCN(C(=O)c3cc(-c4ccccc4)n[nH]3)CC2)cc1  pIC50 (HEK293; cell growth or viability): < 5.00
Cc1c(Cc2ccccc2)c(=O)oc2c(C)c(OCC(=O)NN=Cc3ccc([N+](=O)[O-])cc3)ccc12  viability (PC-3; cell growth or viability, MTT; 62.5 µg/mL): 16.8%
OCc1ncc(-c2nn(Cc3ccccc3)c3ccccc23)o1  inhibition (RBE; cell growth or viability, ATP luminescence; 46 µM, 72 h): 21%
Cc1noc(NS(=O)(=O)c2ccc(N=NN(C)O)cc2)c1C  inhibition (ABTS scavenging; 300 µg/mL): 98.9%
COc1ccc(C2CC(=O)C3=C(C2)NC(C)=C(C(=O)OC(C)C)C3c2cccc(O)c2)cc1OC (stereo not drawn)  pIC50 (HEK293; cell growth or viability): < 5.00
CCC(=CCc1c(O)cc2c(c1O)C(=O)C[C@H](c1ccccc1O)O2)CC  inhibition (HeLa; cell growth or viability, MTT; 0.938 µM, 48 h): -3.13%
Cc1ccc(C(CS(=O)(=O)c2ccccc2)=NNC2=NC(=O)C(=NNc3ccc([N+](=O)[O-])cc3)S2)cc1  viability (WM 266-4; cell growth or viability, MTT; 0.4 µM, 48 h): 57.4%
Cc1[nH]c(C)c(-c2ccc(OCCOc3ccc(C(F)(F)F)cn3)cc2)c(=O)c1Br  pIC50 (HEK293; cell growth or viability): < 5.00

Excerpt of the above:
CC(=NNC(=O)COc1ccc2c(C)c(Cc3ccccc3)c(=O)oc2c1C)c1ccc(Br)cc1  viability (PC-3; cell growth or viability, MTT; 62.5 µg/mL): 12.5%
CC(=NNC(=S)Nc1ccccc1)c1ccc(Nc2nnc(-c3ccc(Cl)cc3)c3ccccc23)cc1  viability (MCF7; cell growth or viability, MTT; 0.625 µM, 24 h): 57%
CC(=O)Nc1ccc(Oc2nnc(-c3ccc(Cl)cc3)c3ccccc23)cc1  viability (MCF7; cell growth or viability, MTT; 0.312 µM, 24 h): 15.6%
O=C(Nc1ccccc1)Nc1ccc(Oc2nnc(-c3ccc(Cl)cc3)c3ccccc23)cc1  cell death (MCF7; cell growth or viability, MTT; 10 µM): 94.6%
Cc1[nH]c(C)c(-c2ccc(Oc3ccc(Cl)cc3)cc2)c(=O)c1Br  pIC50 (HEK293; cell growth or viability): < 5.00
Cc1ccc(S(=O)(=O)N2CCCN(C(=O)c3cc(-c4ccccc4)n[nH]3)CC2)cc1  pIC50 (HEK293; cell growth or viability): < 5.00
Cc1[nH]c(C)c([N+](=O)[O-])c(=O)c1-c1ccc(Oc2ccc(OC(F)(F)F)cc2)cc1  pIC50 (HEK293; cell growth or viability): < 5.00
Cc1ccc(C(CS(=O)(=O)c2ccccc2)=NNc2nc(C)c(N=Nc3cccc(C)c3)s2)cc1  viability (WM 266-4; cell growth or viability, MTT; 25 µM, 48 h): 40.3%
Cc1[nH]c(C)c(-c2ccc(OCCOc3ccc(C(F)(F)F)cn3)cc2)c(=O)c1Br  pIC50 (HEK293; cell growth or viability): < 5.00
